# Measurements pooled from the literature.
# Each numbered part is a random draw from the data of one study; scales do not carry over between parts. Positions count from the first letter of the parent shown.
# Sequence of UniProt P49459 (whole entry, looked up): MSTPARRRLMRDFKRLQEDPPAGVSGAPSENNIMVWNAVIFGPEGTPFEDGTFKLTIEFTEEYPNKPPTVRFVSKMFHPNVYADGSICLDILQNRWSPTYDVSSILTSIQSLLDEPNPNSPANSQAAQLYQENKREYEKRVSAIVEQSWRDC

# Study 1
# Target: BATF, bZIP domain (human)
# Technique: DHFR protein complementation
# Medium: yeast
# Setting: single substitutions, most at no-binding floor
# Baseline: wild-type JUN-FOS pair
# Reading: higher = stronger binding
# Starting sequence: JUN, bZIP domain (human); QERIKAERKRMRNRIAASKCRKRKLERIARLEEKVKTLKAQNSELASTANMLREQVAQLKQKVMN; partner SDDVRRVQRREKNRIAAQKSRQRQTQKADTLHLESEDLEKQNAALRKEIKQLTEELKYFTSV
Substitution,binding fitness [natural log]
S47Y,-0.0493
V56D,-1.46
A57M,-0.0643
N42Y,-0.175
K34L,0.00802
A40S,-0.032
A40M,-0.0974
L31M,-0.0167

# Study 2
# Target: Fragile X messenger ribonucleoprotein 1, C-terminal low-complexity region (Fmr1, Mus musculus, UniProt P35922)
# Technique: RNA Bind-n-Seq
# Form: RNA
# Medium: in vitro
# Concentration: 200 nM
# Setting: whole 134-nt RNA, ends assumed
# With: 150 mM LiCl
# Baseline: input library
# Reading: higher = stronger binding
# Library: 7-deaza-guanosine replaces G
# Constant ends, left off below: GGGAGUUCUACAGUCCGACGAUC … UGGAAUUCUCGGGUGUCAAGG
Sequence,log2 enrichment
UUUUCAAGGGGGCCCCAACUGGGGCCGCCUUGUAGCCUUCUUUGUCUUUGGGGCUGCACUGUGUGCUGAGAGUGUCAACAAGGAGAUGGA,-1.43
CACAGACAACACGCACCCACACAGACACAGAGGGAAGGGAUUGGGAUGGGGACAGGGUGCACAGCAGGGCGGGGUAGGACCCCAGCCCCU,-0.652
GUCCUGUGCUACACAUCGUAUGUACCGAAUCGGGGAAAAAGGGGAAAAAGGGGAGGGGAAAGUAUUAUGUUACGCCGUUCGGAUCUGCAC,0.778
GUCCUGUGCUACACAUCGUAUGUACCGAAUCGGGGUGGGGAAAGGGGAAAAAAAGGGGAAAGUAUUAUGUUACGCCGUUCGGAUCUGCAC,1.01
UCCUGUGCUACACAUCGUAUGUACCGAAUCGGGUUUUUGGGUUUUUGGGGUUUUUGGGGAAAGUAUUAUGUUACGCCGUUCGGAUCUGCA,-1.02
CCUCAAGUCCUGUGCUACACAUCGUAUGUACCGAAUCGGAAAGGAGGUUUGGAAAGUAUUAUGUUACGCCGUUCGGAUCUGCACUUCCAG,-1.3
GUUUGAUGAUCGUGGACGGAGUGAUUACGAUGGCAUUGGCAGCCGUGGUGACAGAAGUGGCUUUGGCAAAUUUGAACGUGGUGGAAACAG,1.27
ACCAUGCAGGUGGGCAUCUUUGGGAAGUGGGGCAAGGGGGGGAUAGGGAGGGGGGUAACACUUUGGGAACAGGUGGUCCCAAGUCGUUUC,1.01

# Study 3
# Target: CCNA2, cyclin fold, Cln2 fusion (human)
# Technique: yeast growth competition, sequencing
# Medium: yeast
# Setting: strong parent motif
# Baseline: not given
# Reading: higher = stronger binding
# Starting sequence: RBL2 docking peptide (human); STTRRRLFVENDS; partner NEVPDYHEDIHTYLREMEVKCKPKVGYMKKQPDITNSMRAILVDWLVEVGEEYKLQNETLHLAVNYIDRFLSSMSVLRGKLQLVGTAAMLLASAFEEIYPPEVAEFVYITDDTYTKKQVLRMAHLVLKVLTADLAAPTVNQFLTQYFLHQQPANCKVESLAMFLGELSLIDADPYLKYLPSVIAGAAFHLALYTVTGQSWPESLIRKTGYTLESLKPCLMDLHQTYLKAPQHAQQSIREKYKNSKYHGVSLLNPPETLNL
Substitution,normalised enrichment score
L7A,0.437
S1W,4.12
S1R,6.56
D12V,5.68
V9I,6.1
V9Q,5.49
S1M,5.37
R4Y,2.47

# Single results of other studies
Sequence,target,assay,test system,conditions,scale,endpoint,value
DDVLTKDAGECVICLEELLQGDTIARLPCLCIYHKSCIDSWFEVNRSCPEHPAD (ZNRF1 RING domain (UniProt Q8ND25)),UBE2A UBC core domain (UniProt P49459),yeast two-hybrid,yeast,mostly zero background,"baseline: not given, higher = stronger interaction",lacZ reporter activity,0

# Excerpt of the above (study 3):
Substitution,normalised enrichment score
S1R,6.56
